Assay results pooled from the literature.
Protocols differ between the studies behind these lines. Several values in a cell are separate wells, animals, samples, runs or records. Numbers after ± are the reported error.
Sequence of UniProt Q01650 (whole entry, looked up): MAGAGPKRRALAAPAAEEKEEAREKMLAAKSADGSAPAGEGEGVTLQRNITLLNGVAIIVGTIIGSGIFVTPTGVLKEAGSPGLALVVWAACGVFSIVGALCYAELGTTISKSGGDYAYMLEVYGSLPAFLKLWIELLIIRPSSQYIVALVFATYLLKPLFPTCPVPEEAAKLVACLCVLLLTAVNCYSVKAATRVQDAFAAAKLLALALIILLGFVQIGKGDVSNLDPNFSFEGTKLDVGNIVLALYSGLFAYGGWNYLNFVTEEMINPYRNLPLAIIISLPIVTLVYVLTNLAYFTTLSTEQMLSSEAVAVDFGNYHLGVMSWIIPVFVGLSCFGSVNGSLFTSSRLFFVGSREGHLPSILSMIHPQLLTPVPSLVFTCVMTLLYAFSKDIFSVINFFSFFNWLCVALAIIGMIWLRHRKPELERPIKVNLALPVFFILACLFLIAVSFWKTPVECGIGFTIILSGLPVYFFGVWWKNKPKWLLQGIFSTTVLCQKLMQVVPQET
Sequence of UniProt P42575 (whole entry, unmodified, looked up): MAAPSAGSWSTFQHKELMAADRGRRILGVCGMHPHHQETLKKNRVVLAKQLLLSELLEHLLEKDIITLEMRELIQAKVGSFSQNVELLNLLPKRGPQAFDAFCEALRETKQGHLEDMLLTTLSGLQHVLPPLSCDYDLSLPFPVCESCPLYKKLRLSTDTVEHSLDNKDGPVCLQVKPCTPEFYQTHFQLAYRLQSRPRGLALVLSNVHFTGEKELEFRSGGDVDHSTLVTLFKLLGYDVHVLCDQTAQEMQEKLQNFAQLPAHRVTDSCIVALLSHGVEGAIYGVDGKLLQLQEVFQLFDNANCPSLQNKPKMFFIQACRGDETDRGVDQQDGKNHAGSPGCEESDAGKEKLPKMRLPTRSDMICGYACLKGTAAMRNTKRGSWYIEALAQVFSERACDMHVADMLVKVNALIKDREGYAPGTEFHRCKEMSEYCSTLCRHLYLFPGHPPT
Sequence of UniProt Q9BV86 (whole entry, looked up): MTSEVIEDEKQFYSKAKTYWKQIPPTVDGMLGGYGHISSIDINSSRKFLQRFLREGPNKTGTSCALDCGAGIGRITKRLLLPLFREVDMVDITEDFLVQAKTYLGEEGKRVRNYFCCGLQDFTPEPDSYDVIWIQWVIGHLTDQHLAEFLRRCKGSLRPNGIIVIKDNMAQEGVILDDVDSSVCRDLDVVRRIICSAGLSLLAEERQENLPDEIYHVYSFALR
Sequence of UniProt Q9Y210 (whole entry, looked up): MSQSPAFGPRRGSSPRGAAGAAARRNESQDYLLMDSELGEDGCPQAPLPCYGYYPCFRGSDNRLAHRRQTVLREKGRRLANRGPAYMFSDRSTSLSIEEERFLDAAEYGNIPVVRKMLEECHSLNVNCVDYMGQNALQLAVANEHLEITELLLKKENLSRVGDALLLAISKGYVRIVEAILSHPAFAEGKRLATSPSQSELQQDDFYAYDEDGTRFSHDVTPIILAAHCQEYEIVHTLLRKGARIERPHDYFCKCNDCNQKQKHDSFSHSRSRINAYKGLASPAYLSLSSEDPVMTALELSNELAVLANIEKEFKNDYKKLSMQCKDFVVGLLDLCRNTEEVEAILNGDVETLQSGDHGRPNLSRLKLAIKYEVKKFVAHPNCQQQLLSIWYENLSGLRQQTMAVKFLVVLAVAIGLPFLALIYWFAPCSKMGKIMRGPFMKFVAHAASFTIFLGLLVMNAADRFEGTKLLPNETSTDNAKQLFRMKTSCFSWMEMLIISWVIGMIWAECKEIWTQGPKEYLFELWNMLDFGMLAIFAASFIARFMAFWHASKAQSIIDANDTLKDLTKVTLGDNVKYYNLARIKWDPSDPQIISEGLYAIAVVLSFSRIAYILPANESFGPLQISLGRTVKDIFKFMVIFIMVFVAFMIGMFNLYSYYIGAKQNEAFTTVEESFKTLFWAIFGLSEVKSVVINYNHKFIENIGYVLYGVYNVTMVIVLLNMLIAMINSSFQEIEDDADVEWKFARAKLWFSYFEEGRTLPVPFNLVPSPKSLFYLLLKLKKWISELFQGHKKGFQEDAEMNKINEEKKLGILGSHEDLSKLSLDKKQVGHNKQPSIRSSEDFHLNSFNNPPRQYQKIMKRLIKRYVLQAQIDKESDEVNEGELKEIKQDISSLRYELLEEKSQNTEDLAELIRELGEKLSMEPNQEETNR
Sequence of UniProt Q86TI2 (whole entry, looked up): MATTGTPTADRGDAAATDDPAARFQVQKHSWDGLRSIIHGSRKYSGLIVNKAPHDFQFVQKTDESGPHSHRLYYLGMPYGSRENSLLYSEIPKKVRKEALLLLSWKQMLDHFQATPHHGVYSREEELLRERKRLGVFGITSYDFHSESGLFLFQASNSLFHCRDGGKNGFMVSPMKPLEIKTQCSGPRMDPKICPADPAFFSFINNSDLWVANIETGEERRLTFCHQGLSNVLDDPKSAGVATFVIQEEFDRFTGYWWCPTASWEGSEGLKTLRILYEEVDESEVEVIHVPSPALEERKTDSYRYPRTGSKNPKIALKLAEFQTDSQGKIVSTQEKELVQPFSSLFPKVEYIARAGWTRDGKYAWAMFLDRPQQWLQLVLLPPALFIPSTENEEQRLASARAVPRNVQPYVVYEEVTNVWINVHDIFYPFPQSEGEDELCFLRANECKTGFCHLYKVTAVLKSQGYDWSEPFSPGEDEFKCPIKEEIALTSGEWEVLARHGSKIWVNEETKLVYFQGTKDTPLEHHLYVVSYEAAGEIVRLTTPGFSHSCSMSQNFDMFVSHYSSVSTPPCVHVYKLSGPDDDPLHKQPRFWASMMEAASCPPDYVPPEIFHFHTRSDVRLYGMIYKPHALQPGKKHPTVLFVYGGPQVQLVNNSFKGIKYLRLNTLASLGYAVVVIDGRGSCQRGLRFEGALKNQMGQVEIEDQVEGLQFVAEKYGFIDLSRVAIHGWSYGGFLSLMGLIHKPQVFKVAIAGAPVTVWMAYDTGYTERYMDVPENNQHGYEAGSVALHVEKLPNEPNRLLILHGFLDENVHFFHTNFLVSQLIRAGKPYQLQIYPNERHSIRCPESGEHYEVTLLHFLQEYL
Sequence of UniProt P04818 (whole entry, looked up): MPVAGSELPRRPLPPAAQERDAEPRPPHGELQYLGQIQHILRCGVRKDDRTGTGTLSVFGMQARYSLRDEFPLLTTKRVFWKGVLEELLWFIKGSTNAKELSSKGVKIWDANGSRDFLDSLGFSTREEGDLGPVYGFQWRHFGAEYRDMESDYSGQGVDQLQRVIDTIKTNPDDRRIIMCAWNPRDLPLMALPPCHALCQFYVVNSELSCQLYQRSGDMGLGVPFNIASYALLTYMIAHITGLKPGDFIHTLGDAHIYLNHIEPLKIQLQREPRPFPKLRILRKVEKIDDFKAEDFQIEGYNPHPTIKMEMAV
Sequence of UniProt P49720 (whole entry, looked up): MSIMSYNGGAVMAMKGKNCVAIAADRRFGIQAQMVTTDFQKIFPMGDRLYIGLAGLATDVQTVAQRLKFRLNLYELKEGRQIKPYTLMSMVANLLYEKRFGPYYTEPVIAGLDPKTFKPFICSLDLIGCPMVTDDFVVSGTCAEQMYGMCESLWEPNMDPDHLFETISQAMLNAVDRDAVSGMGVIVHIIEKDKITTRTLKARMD
Sequence of UniProt Q99436 (whole entry, looked up): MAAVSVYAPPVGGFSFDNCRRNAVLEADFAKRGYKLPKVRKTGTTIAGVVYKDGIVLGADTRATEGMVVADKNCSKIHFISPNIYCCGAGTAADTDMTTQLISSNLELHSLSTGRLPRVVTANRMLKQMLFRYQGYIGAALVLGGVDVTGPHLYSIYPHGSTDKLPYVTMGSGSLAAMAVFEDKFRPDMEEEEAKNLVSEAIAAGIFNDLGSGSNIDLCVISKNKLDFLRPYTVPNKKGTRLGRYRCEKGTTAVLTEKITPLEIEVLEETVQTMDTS

N#Cc1cnc2sc(C(=O)O)cc2c1N1CCc2[nH]nc(C(=O)N[C@@H](CC(=O)NCCOCCN3CCOCC3)c3cccc(Br)c3)c2C1 — IC50 (Interleukin-1 receptor type 1 (IL1R1, Homo sapiens, UniProt P14778); reporter gene): > 100 µM
CCC1(CC)C(=O)N(c2cccc(CN3CCN(c4cc(C)nc5ccc(Br)cc45)CC3)c2)C1=O — IC50 (Dipeptidyl peptidase 9 (DPP9, Homo sapiens, UniProt Q86TI2); cell-free assay, inhibitor): 1.03 µM
COc1cc(C(=O)O[C@@H]2Cc3c(O)cc(O)cc3O[C@@H]2c2ccc(O)c(O)c2)cc(O)c1O — IC50 (maltase, rat; enzyme activity, inhibitor; rat intestinal brush border vesicles): 60.3 µM
N=C(NCCCCC(N)C(N)=O)NCCSCC1OC(n2cnc3c(N)ncnc32)C(O)C1O (stereo not shown) — IC50 (N-terminal Xaa-Pro-Lys N-methyltransferase 1 (Homo sapiens, UniProt Q9BV86); enzyme activity, inhibitor, fluorescence): > 100 µM
O=C(N[C@@H](Cc1coc2ccccc12)B(O)O)[C@@H]1C[C@H]2CC[C@@H]1O2 — IC50 (Proteasome subunit beta type-3/PSMB7 (Homo sapiens, UniProt P49720+Q99436); β2 enzyme activity, inhibitor; human constitutive proteasome; 2 h preincubation, together with: Ac-RLR-AMC): > 30 µM
COc1cc(CNC(=O)C[C@H](C)CCC=C(C)C)ccc1OCc1cn(-c2ccccc2[N+](=O)[O-])nn1 — growth percent (EKVX; SRB; 10 µM, 48 h): 58.8%
O=c1c(-c2cccs2)[n+]([O-])c2ccccc2n1O — IC50 (Na(+)/H(+) exchange regulatory cofactor NHE-RF1, PDZ1 domain (NHERF1, Homo sapiens, UniProt O14745); binding, fluorescence polarization competition; together with: FITC-PTH1R C-terminal peptide): 50 ± 5 µM
N[C@@H](Cc1c[nH]c2ccc(OCc3ccccc3)cc12)C(=O)O — IC50 (Large neutral amino acids transporter small subunit 1 (SLC7A5, Homo sapiens, UniProt Q01650); transporter uptake, inhibitor, radiometric): 18.8 µM and 19 µM
CC(C)OC(=O)C(CS)N1C(=O)c2ccc(N(C)C)cc2C1=O (stereo not shown) — IC50 (Metallo-beta-lactamase type 2 (blaNDM-1, Klebsiella pneumoniae, UniProt C7C422); enzyme activity, inhibitor; pH 7): 10.3 µM
CC[C@H](C)[C@H](NC(C)=O)C(=O)N[C@H](C(=O)N[C@H](C(=O)N[C@@H](CCCCNC(C)=O)C(=O)N[C@H](C=O)CC(=O)O)C(C)C)[C@@H](C)O — Ki (Caspase-2 (Homo sapiens, UniProt P42575); enzyme activity, inhibitor, fluorescence; pH 6.5): 0.501 µM
COc1cc(CNC(=O)C[C@H](C)CCC=C(C)C)ccc1OCc1cn(-c2ccc(F)cc2)nn1 — growth percent (MDA-MB-435 melanoma cells; SRB; 10 µM, 48 h): 104%
C=CCc1ccc(OCc2nnc(SCC(=O)Nc3ccc(F)cc3F)o2)c(OC)c1 — IC50 (Thymidylate synthase (TYMS, Homo sapiens, UniProt P04818); enzyme activity, inhibitor): 1.01 µM
Cc1cc(C)nc(SCC(=O)Nc2ncc(Cc3cccc(OCc4cn(Cc5ccc(C#N)cc5)nn4)c3)s2)n1 — IC50 (NAD-dependent protein deacetylase sirtuin-2 (SIRT2, Homo sapiens, UniProt Q8IXJ6); inhibitor): 1.1 ± 0.2 µM
Cc1cc(CN2CCN(c3c(Br)cnc4nc(-c5ccc(N6CCN(C)CC6)cc5)[nH]c34)CC2)no1 — IC50 (Receptor-type tyrosine-protein kinase FLT3 (FLT3, Homo sapiens, UniProt P36888); enzyme activity, inhibitor): 0.0025 µM
CC(=O)N[C@@H](CC(=O)O)C(=O)N[C@H](C(=O)N[C@@H](CCN)C(=O)N[C@H](C=O)CC(=O)O)C(C)C — Ki (Caspase-2, circularly permuted (Homo sapiens, UniProt P42575); enzyme activity, inhibitor; pH 6.5, 37 °C, together with: Z-VDVAD-AFC): 11.7 µM
OC[C@H]1[C@@H](O)[C@@H](O)CN1CCc1ccccc1 — IC50 (Golgi alpha-mannosidase IIb (Drosophila melanogaster, UniProt Q9VF33); pH 6.0, 0.5 mM CoCl2, together with: 2 mM pNP-Man): 190 µM
CC(=O)C12NC(C)(C)CC1(C)C(=O)C1=C2c2c(c3c4n2C(C)(C)CC2=C4C4(CC(C)(C)NC(C)(C4)C2=O)CC3(C)C)C(=O)C(C)(C)N1 (single isomer, unassigned; (-)) — IC50 (Short transient receptor potential channel 6 (TRPC6, Homo sapiens, UniProt Q9Y210); ion current, inhibitor, patch clamp): 0.81 µM
CCCCCc1ccc(S(=O)(=O)N2CC2C(=O)OC)cc1 (stereo not shown) — IC50 (Protein disulfide-isomerase A3 (PDIA3, Homo sapiens, UniProt P30101); enzyme activity, inhibitor, absorbance; pH 7.6): > 200 µM
CN(C)C/C=C/C(=O)Nc1ccc2nc(NCCCCCN(C)C)nc(NCCCCCCN(C)C)c2c1 — IC50 (TP53-binding protein 1, tandem tudor domain (Homo sapiens, UniProt Q12888); methyl-lysine binding, TR-FRET): 20 µM

Repeated from above:
O=C(N[C@@H](Cc1coc2ccccc12)B(O)O)[C@@H]1C[C@H]2CC[C@@H]1O2 — IC50 (Proteasome subunit beta type-3/PSMB7 (Homo sapiens, UniProt P49720+Q99436); β2 enzyme activity, inhibitor; human constitutive proteasome; 2 h preincubation, together with: Ac-RLR-AMC): > 30 µM
